Results from different studies.
Every numbered part comes from another study and shows a few of its results, in no order. Changes are numbered by the printed parent chain.

Study 1
Target: RNA binding protein fox-1 homolog 2, RRM domain, GST-SBP tag (RBFOX2, Homo sapiens, UniProt O43251-10, residues 100-194)
Method: RNA Bind-n-Seq
Form: RNA
Medium: in vitro
Concentration: 365 nM
Setting: natural RNA segment, single round, ends assumed
Reference: no-protein control
Reading: higher = stronger binding
Measurement: RBNS enrichment (R)
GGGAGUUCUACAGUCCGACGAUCCCUCCAAGCCGUUGCAGACAAAGUGAAAGAGGACUCCCAGGUGCCUGCAACCCAGACUCUGCAGAGAGCAGGGCCGAAAGCACUGGAGAAGGUGGAGGAGGUAGAGGAGGUGGAAUUCUCGGGUGCCAA: 0.548
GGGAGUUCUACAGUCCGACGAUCUGUCCGUCCAUUCUGGGCCACAGCCAUGAGAUGCCCCUCCUGCUGUGAAGGUAGCUGUGCGCUGGCUCCCAGUGUGCCUGCAGCUGCCACAGGCCAGCACACGGUGGGGAUGGAAUUCUCGGGUGCCAA: 0.381
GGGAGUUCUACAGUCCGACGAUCUCUUUGCUAUAAAUGAUUCAGAAUUUUGUCAGAUUUUGUAGGUUGUAUCAUCGUAAGACGGAGUUGCAUAAGGAGAUCAUAAGCUGUGUGGCUAUUGCACUAACAAGCCUUGGAAUUCUCGGGUGCCAA: 0.589
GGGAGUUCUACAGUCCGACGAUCGUGAUACCAUCCCAGUGCCAUGAGCCCACACUGCCCGCCCUCAGGCUCUCAGGUGAACGUGGCCGUCAGCGGGGAAACGUGUGUGUCAGUUGGACCAUGUGGGACCCUGAUGGAAUUCUCGGGUGCCAA: 0.379
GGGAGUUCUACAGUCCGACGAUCUAGCCUGCAUGGACGAGAAUGGACCUGAUGGAUCUGGACAUGGAGUUGUCUCUGGGAAAGACCACACACUGGGAACUCCACUCAUGCUAGAUGUCCAGGCGGAUUUGGAGUGGAAUUCUCGGGUGCCAA: 37.5
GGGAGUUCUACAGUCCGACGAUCCUGAUCCUAAGAAGGGGGCCUGGGGGUGCGUGCAGCCUGUCGGGGAGACCCCACUCUGACAGUGGGCACACGGCAGCCUGCAAAGCACAGGGCCACCGCCACAGCCCGGCUGGAAUUCUCGGGUGCCAA: 0.376

Study 2
Target: CCNB1, cyclin fold, Cln2 fusion (human)
Method: yeast growth competition, sequencing
Medium: yeast
Setting: weak parent motif
Reference: not given
Reading: higher = stronger binding
Measurement: normalised enrichment score
Starting sequence: CDC6 docking peptide (human); TLKGRRLVFDNQL
L13A: 0.678
D10Y: 0.559
L2V: 0.626
G4Y: -0.446
Q12C: -0.0685

Study 3
Target: ABI1, truncated, D143A, DHFR fusion (Arabidopsis thaliana)
Method: DHFR PCA, deep sequencing
Medium: yeast
Setting: methotrexate growth selection, single substitutions
Together with: (+)-ABA 2500 µM
Reference: wild-type fitted maximum
Reading: higher = stronger binding
Measurement: relative binding score
Starting sequence: PYL1, truncated, DHFR fusion (Arabidopsis thaliana); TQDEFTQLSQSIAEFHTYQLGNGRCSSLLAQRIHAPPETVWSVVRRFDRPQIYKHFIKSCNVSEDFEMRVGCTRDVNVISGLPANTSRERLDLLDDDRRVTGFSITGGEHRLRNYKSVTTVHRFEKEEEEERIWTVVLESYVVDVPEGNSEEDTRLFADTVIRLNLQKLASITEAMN; partner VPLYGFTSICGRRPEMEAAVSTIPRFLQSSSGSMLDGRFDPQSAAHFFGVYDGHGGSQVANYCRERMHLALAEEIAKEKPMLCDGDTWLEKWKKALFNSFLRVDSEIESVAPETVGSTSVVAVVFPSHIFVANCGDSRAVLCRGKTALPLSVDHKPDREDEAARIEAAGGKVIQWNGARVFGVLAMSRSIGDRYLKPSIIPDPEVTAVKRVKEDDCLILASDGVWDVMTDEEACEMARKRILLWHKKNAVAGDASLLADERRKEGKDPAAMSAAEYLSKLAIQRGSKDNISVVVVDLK
I33W: 10.6%
I57A: 82%
N85Q: 91.2%
V136T: 99%

Mixed results
PhoQ, residues 284 288 289 292 302 303 ASSHFY
fold induction (PhoP, residues 12 14 15 18 19 MHTVL (Escherichia coli, UniProt P23836); Sort-seq, refers to: YFP reporter; E. coli; PhoQ-PhoP variant library, together with: 10 µM Mg2+; reference: high Mg2+ state, higher = stronger signaling): 18.9

For quick reference, copied from above (study 3):
I57A: 82%
